Measured values gathered from unrelated publications.
Protocols differ between the studies behind these lines. Numbers after ± are the reported error.

The chains behind the UniProt entries cited, without tags or fusion partners. Where a name states a change or a piece, a line headed by the entry shows the natural chain unless it says otherwise. Residues count along the entry.
UniProt P17706, whole entry: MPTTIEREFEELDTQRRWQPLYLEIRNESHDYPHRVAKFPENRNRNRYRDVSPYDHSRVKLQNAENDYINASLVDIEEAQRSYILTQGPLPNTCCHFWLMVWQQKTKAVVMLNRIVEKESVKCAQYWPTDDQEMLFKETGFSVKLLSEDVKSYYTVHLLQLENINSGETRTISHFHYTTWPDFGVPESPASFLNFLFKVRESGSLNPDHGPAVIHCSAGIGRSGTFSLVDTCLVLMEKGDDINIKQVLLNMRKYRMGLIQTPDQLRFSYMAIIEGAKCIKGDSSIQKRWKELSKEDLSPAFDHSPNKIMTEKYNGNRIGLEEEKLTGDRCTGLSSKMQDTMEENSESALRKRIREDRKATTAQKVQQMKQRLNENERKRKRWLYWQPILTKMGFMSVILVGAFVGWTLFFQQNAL
UniProt P53355, whole entry: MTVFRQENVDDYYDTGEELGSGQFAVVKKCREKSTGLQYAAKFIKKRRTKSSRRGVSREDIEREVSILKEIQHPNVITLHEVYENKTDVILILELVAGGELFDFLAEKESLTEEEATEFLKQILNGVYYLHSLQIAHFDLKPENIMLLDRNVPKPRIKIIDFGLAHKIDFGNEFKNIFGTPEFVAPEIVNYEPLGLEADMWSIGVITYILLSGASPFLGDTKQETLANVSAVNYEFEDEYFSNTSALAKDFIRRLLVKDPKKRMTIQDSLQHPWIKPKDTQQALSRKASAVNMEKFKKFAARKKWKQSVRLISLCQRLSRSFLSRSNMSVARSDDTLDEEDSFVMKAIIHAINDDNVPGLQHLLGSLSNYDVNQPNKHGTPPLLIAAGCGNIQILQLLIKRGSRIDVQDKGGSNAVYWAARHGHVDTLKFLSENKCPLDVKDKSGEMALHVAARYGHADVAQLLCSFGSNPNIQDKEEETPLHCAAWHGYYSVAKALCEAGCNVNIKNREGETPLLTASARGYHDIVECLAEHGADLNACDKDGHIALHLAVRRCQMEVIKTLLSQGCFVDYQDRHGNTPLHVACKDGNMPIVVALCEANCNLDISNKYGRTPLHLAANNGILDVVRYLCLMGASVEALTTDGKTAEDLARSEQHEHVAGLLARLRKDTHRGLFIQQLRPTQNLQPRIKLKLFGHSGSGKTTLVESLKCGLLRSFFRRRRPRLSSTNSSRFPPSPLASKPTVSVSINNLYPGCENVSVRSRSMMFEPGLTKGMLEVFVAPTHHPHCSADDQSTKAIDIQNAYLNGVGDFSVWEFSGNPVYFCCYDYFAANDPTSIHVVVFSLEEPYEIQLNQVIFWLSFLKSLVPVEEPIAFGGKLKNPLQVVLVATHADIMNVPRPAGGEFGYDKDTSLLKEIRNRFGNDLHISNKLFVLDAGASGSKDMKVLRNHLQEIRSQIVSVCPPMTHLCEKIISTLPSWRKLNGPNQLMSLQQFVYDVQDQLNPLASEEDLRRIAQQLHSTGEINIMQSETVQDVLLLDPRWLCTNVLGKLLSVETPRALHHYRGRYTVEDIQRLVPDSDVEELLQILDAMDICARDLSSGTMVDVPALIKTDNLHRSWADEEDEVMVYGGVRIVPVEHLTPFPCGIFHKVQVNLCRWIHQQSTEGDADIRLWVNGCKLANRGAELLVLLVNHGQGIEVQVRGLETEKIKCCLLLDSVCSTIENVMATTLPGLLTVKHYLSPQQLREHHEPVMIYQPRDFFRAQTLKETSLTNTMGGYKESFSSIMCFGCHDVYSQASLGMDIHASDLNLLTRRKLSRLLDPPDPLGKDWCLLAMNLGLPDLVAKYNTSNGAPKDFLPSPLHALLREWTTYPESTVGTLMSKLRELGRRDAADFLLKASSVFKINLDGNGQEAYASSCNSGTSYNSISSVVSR
UniProt Q9UBL9, whole entry: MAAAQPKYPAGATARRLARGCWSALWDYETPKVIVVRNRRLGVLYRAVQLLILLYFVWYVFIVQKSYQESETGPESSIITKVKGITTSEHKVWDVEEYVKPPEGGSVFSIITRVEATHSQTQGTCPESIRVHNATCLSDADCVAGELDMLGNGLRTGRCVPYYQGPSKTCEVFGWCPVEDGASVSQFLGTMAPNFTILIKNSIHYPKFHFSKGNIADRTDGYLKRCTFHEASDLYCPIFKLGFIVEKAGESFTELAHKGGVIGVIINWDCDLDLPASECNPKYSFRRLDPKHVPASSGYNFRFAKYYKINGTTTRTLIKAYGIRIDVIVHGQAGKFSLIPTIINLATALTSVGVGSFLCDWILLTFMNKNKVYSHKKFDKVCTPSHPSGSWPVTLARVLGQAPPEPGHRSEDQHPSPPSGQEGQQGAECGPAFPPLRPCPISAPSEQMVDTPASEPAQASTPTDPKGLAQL
UniProt P29320, 29-207 limits assumed: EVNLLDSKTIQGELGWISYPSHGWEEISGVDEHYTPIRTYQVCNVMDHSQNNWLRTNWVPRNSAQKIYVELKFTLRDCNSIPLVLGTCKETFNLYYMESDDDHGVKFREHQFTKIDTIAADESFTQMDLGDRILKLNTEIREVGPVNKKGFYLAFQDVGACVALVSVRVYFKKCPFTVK
UniProt P07332, whole entry: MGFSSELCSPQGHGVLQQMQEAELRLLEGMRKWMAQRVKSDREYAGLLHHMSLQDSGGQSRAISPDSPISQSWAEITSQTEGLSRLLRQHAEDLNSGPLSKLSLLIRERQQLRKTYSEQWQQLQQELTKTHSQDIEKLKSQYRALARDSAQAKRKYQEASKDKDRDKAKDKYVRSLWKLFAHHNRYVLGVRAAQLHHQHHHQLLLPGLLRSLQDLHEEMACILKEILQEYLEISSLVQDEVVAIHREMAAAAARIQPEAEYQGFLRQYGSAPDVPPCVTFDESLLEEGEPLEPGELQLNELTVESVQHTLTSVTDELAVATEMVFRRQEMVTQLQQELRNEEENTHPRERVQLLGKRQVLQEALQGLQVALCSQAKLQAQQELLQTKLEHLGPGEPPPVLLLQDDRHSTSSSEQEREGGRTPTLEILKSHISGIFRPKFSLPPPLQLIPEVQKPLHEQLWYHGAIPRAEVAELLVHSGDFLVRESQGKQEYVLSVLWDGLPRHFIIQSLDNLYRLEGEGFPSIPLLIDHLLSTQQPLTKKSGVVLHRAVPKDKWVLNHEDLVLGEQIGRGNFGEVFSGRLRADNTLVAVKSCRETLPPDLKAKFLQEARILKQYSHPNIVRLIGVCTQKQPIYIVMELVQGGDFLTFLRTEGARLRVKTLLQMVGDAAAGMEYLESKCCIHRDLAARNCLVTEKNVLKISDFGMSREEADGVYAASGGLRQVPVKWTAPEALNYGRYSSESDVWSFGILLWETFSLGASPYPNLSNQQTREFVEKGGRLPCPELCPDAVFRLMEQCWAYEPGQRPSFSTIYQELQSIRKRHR
UniProt P28072, whole entry, looked up: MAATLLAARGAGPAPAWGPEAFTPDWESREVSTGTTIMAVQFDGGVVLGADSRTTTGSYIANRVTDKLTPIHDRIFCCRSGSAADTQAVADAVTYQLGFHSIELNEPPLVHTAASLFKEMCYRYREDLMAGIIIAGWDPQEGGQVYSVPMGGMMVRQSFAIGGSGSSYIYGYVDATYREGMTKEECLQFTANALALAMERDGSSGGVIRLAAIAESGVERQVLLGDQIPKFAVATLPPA
UniProt Q62645, whole entry, looked up: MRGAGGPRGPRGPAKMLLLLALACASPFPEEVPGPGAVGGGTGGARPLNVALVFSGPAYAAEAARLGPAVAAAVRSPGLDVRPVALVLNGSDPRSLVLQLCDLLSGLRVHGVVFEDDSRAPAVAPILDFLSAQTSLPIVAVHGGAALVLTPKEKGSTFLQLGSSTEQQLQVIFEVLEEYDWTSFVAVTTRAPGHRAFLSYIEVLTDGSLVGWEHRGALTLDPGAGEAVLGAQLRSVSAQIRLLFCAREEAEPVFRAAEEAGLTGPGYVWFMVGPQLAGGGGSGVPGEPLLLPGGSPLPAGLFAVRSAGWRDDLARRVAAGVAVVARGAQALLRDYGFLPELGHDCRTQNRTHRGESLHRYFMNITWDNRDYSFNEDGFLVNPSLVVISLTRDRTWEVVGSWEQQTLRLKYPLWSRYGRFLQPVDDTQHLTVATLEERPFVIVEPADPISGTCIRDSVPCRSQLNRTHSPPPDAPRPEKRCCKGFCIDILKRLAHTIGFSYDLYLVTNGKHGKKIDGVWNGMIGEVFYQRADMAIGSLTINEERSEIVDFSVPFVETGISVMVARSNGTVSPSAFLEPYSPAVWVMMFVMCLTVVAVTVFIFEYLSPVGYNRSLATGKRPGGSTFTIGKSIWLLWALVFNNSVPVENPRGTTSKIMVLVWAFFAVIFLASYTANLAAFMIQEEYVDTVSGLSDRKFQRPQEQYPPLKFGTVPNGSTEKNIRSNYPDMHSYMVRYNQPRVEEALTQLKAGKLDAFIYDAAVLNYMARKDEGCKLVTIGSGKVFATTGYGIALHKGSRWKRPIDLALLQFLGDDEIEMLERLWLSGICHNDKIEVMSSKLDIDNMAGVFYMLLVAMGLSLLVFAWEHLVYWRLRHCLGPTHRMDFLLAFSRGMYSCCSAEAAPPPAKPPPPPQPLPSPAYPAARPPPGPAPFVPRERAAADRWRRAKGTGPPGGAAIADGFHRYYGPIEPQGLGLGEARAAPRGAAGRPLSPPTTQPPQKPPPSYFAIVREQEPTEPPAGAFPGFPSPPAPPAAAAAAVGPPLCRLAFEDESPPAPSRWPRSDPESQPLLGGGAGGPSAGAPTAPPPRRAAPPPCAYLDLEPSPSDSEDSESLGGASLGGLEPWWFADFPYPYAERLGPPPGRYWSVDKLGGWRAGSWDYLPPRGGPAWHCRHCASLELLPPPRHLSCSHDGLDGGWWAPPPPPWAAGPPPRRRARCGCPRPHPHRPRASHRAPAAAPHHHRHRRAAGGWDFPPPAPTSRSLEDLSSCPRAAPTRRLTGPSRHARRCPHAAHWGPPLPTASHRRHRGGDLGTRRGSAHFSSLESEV
UniProt P06276, whole entry, looked up: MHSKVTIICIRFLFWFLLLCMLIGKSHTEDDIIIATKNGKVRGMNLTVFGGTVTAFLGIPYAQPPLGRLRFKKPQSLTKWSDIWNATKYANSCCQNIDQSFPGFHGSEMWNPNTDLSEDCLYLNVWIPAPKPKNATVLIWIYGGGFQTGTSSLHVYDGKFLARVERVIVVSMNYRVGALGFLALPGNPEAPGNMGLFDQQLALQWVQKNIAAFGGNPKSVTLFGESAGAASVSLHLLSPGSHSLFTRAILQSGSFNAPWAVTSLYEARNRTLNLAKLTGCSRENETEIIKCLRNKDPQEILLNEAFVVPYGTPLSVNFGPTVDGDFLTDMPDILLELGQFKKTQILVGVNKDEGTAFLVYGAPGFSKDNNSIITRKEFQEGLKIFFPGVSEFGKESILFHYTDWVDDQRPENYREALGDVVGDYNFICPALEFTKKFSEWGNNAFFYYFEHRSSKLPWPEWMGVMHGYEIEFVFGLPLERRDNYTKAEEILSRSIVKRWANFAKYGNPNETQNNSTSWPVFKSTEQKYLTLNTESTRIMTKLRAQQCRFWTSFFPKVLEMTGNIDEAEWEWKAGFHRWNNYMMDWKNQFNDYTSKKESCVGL

Compound = COc1cc(CC(=O)NCC(NC(=O)C(CCCNC(=O)c2cccc(I)c2)NC(=O)C(Cc2ccc(C(F)(F)P(=O)(O)O)cc2)NC(=O)c2ccc(C)c(Br)c2)C(N)=O)ccc1O (stereo not drawn); target = Tyrosine-protein phosphatase non-receptor type 2 (PTPN2, Homo sapiens, UniProt P17706); assay = pNPP hydrolysis; scale = relative to: Ki PTP-MEG2 over PTPN2; endpoint = selectivity ratio; value = > 18 fold
Compound = CC#C/C(=N\OC[C@H]1COCCN1)c1ccc2ncnc(Nc3ccc(OCc4cccc(F)c4)c(Cl)c3)c2c1; target = Death-associated protein kinase 1 (DAPK1, Homo sapiens, UniProt P53355); assay = kinase activity; conditions = 10 µM; endpoint = inhibition; value = -0.2%
Compound = CCN(CC)C(=O)Oc1ccc(C(=O)Nc2cccc3cc[nH]c23)cc1; target = P2X purinoceptor 2 (P2RX2, Homo sapiens, UniProt Q9UBL9); assay = modulator, two-electrode voltage clamp; system = Xenopus oocytes; conditions = 20 µM, together with: 9 µM ATP; scale = relative to: agonist alone; endpoint = current response; value = 93.1 ± 1.6%
Compound = COc1ccc2[nH]cc(CCNC(=O)[C@H](Cc3ccncc3)NC(=O)[C@H](Cc3ccc(Cl)cc3)NC(=O)[C@H](Cc3c[nH]c4ccc(O)cc34)NC(=O)CCCN)c2c1; target = Ephrin type-A receptor 3 (EPHA3, Homo sapiens, UniProt P29320); assay = binding, isothermal titration calorimetry; endpoint = ΔH; value = -1.54 ± 0.3 kcal/mol
Compound = CCN1CCN(Cc2ccc(NC(=O)c3ccc(C)c(/C=C/c4cnc5[nH]ccc5c4OC)c3)cc2C(F)(F)F)CC1; target = Tyrosine-protein kinase Fes/Fps, with CDC37 (FES, Homo sapiens, UniProt P07332); assay = inhibitor, cell-based kinome screen; system = human cells; conditions = 5 µM; scale = relative to: untreated; endpoint = log2 fold change; value = 0.232
Compound = CCCCCCCCCCC/C=C/c1ccc2cc(CP(=O)(O)O)ccc2c1; target = Autotaxin (ENPP2, Homo sapiens, UniProt Q13822); assay = inhibitor; conditions = enzyme-substrate complex; endpoint = Ki'; value = 1.01 µM
Compound = Cc1cccc(-c2nsc(=O)o2)c1; target = Proteasome subunit beta type-6 (PSMB6, Homo sapiens, UniProt P28072); assay = inactivation; system = human PA28-activated proteasome; endpoint = kobs/[I]; value = 0.78 M⁻¹ s⁻¹
Compound = COc1ccc(OC[C@H]2c3cccn3CC(=O)N2Cc2cccc(F)c2)cc1; target = Glutamate receptor ionotropic, NMDA 2D, with GluN1 (Rattus norvegicus, UniProt Q62645); assay = ion current, whole-cell patch clamp; system = HEK293T cells, transfected; conditions = 10 µM, together with: 1 mM glutamate for 10 ms plus 100 µM glycine; endpoint = charge transfer; value = -110 ± 60 nA·ms
Compound = O=C(NOCC1CC1)c1cc(Br)c(F)c(F)c1Nc1ccc(I)cc1Cl; target = Cholinesterase (BCHE, Homo sapiens, UniProt P06276); assay = enzyme activity, inhibitor; conditions = Triton-containing buffer; endpoint = IC50; value = inactive
